{"data": "Measurements pooled from the literature", "PRKAA1 with beta1, gamma1": "5'-AMP-activated protein kinase catalytic subunit alpha-1, with beta1, gamma1 (PRKAA1, Homo sapiens, UniProt Q13131)", "PRKAA1": "5'-AMP-activated protein kinase catalytic subunit alpha-1 (PRKAA1, Homo sapiens, UniProt Q13131)", "PRKAA1 with beta2, gamma2": "5'-AMP-activated protein kinase catalytic subunit alpha-1, with beta2, gamma2 (PRKAA1, Homo sapiens, UniProt Q13131)", "note": "Values joined by “and” are separate records of one study, mostly repeats; a detail may differ."}
{"Compound": "CCn1cc(C(=O)O)c(=O)c2c(N)c(F)c(NC3CCCCC3)cc21", "target": "PRKAA1 with beta1, gamma1", "test": "kinase activity", "conditions": "0.1 µM, added: ATP at Km", "quantity": "inhibition", "value": "2.2%"}
{"Compound": "CCCCCC(O)/C=C/C=O (stereo not shown)", "target": "PRKAA1", "test": "competitive isoTOP-ABPP", "system": "Ramos soluble proteome", "conditions": "100 µM, added: iodoacetamide probe", "how to read": "baseline: DMSO over compound-treated, higher = stronger cysteine blockade", "quantity": "isoTOP-ABPP competition ratio", "value": 2.4}
{"Compound": "C=CC(=O)N1Cc2nc(-c3cc(-c4cc(Cl)cnc4Cl)c(F)cc3F)n(-c3ccncn3)c2C1", "target": "PRKAA1 with beta2, gamma2", "test": "kinome panel", "conditions": "1 µM", "quantity": "inhibition", "value": "5%"}
{"Compound": "Cc1cccc(O[C@H]2CCC[C@@H](C(C)CNCc3ccncc3)C2)c1 (relative stereo)", "target": "PRKAA1 with beta1, gamma1", "test": "kinome profiling", "conditions": "1 µM", "quantity": "inhibition", "value": "-2%"}
{"Compound": "C[C@H]1CN(C(=O)c2cn(-c3ccnc(N)n3)c3cc(C#CC4(O)CCCCC4)ccc23)CCN1", "target": "PRKAA1 with beta2, gamma2", "test": "kinase activity, Z'-LYTE", "conditions": "1 µM, added: ATP at apparent Km", "quantity": "inhibition", "value": "90%"}
{"Compound": "C=CC(=O)Nc1cccc(-c2cnc3[nH]cc(C(=O)NC(C)(C)C)c3n2)c1", "target": "PRKAA1 with beta1, gamma1", "test": "kinase activity, inhibitor, kinase panel", "conditions": "0.1 µM", "quantity": "inhibition", "value": "48% and 49%"}
{"Compound": "COc1ccc(C(=O)/C=C/c2ccccc2-c2c[nH]c3ccc(C#N)cc23)c(O)c1", "target": "PRKAA1", "test": "enzyme activity, inhibitor", "conditions": "20 µM", "quantity": "inhibition", "value": "9%"}
{"Compound": "CC(C)=CC1OC(C)(C)C2C=C3C(=O)C(Cl)=CC(O)C3C3C(O)C4OC4C(=O)C132 (stereo not shown)", "target": "PRKAA1", "test": "cell-free assay, competition with immobilised ligand", "conditions": "10 µM", "quantity": "remaining binding", "value": "88%"}
{"Compound": "C=CC(=O)N1CCc2ccc(-n3c(=O)ccc4cnc5ccc(-c6cnn(C)c6)cc5c43)cc21", "target": "PRKAA1", "test": "KINOMEscan", "conditions": "1 µM", "how to read": "baseline: DMSO control", "quantity": "remaining binding", "value": "84%"}
{"Compound": "CNC1C[S+]2CC[S+]3CC[S+](C1)[Ru-4]321([N]=C=S)[n]2c3ccc(OC)cc3c3c4c(c5cc(F)c[n+]1c5c32)C(=O)NC4=O (stereo not shown)", "target": "PRKAA1", "test": "KinomeScan", "conditions": "0.1 µM", "how to read": "baseline: untreated", "quantity": "remaining binding", "value": "100%"}
{"Compound": "Nc1ncc2c(n1)-c1c([nH]c3ccc(C4=CCOCC4)cc13)CCC2", "target": "PRKAA1", "test": "binding, competition with immobilised ligand", "conditions": "1 µM", "quantity": "remaining binding", "value": "97%"}
{"Compound": "COc1c(Cl)cccc1Nc1c(-c2ccncc2C#C[C@@]2(C)CCCN2C(=O)/C=C/CN(C)C)[nH]c2c1C(=O)NCC2", "target": "PRKAA1", "test": "binding, competition with immobilised ligand", "conditions": "3 µM", "quantity": "remaining binding", "value": "93%"}
{"Compound": "CCN1CCN(Cc2ccc(C(=O)Nc3ccc(C)c(NCc4cnc5[nH]ccc5c4OC)c3)cc2C(F)(F)F)CC1", "target": "PRKAA1", "test": "binding, competition with immobilised ligand", "conditions": "1 µM", "quantity": "remaining binding", "value": "89%"}
{"Compound": "COc1cc(Nc2nc(C)cc(-c3cnn4nc(OC)ccc34)n2)cc(C(F)(F)F)c1", "target": "PRKAA1", "test": "KINOMEscan", "conditions": "1 µM, AMPK-alpha1", "how to read": "baseline: DMSO", "quantity": "remaining binding", "value": "87%"}
{"Compound": "CNC(=O)C[C@H](Cc1ccc(C#N)cc1)NC(=O)c1cc(-c2ccc(CN[C@H](C)c3ccc(C)cc3)o2)ccc1Cl", "target": "PRKAA1", "test": "enzyme activity, KinaseProfiler panel", "conditions": "1 µM", "quantity": "remaining activity", "value": "89%"}
{"Compound": "CN1CCN(Cc2ccc(-c3ccc(CO[C@H]4CCC[C@@H]4NC(=O)c4cc(-c5cnn(C)c5)cnc4N)cc3)cc2)CC1", "target": "5'-AMP-activated protein kinase catalytic subunit alpha-1, with beta1, gamma2 (PRKAA1, Homo sapiens, UniProt Q13131)", "test": "SelectScreen kinase profiling", "conditions": "0.1 µM", "quantity": "inhibition", "value": "4%"}
{"note": "For quick reference, copied from above:"}
{"Compound": "CCN1CCN(Cc2ccc(C(=O)Nc3ccc(C)c(NCc4cnc5[nH]ccc5c4OC)c3)cc2C(F)(F)F)CC1", "target": "PRKAA1", "test": "binding, competition with immobilised ligand", "conditions": "1 µM", "quantity": "remaining binding", "value": "89%"}
{"Compound": "COc1cc(Nc2nc(C)cc(-c3cnn4nc(OC)ccc34)n2)cc(C(F)(F)F)c1", "target": "PRKAA1", "test": "KINOMEscan", "conditions": "1 µM, AMPK-alpha1", "how to read": "baseline: DMSO", "quantity": "remaining binding", "value": "87%"}
